Experimental data gathered from unrelated publications.
Each line is one published result; not all experiments were run side by side. ± marks the error that the study gave.
DNA gyrase subunit A with GyrB: DNA gyrase subunit A, with GyrB (Mycobacterium tuberculosis, UniProt P9WG47)

The EC50 of `CCCCCn1cc(C(=O)c2cccc3ccccc23)c2ccccc21` is reported as 0.589 nM (CNR2 (Homo sapiens, UniProt P34972, L182I); cAMP, agonist, BRET).
The EC50 of `CC[C@H](C)[C@H](NC(=O)[C@H](CO)NC(=O)[C@H](CC(N)=O)NC(=O)[C@H](CC(C)C)NC(=O)[C@H](Cc1ccc(O)cc1)NC(=O)[C@H](CCCCN)NC(=O)[C@H](CCCCN)NC(=O)[C@@H](NC(=O)[C@H](C)NC(=O)[C@H](CCSC)NC(=O)[C@H](CCC(N)=O)NC(=O)[C@H](CCCCN)NC(=O)[C@H](CCCN=C(N)N)NC(=O)[C@H](CC(C)C)NC(=O)[C@H](CCCN=C(N)N)NC(=O)[C@@H](NC(=O)[C@H](Cc1ccc(O)cc1)NC(=O)[C@H](CC(N)=O)NC(=O)[C@H](CC(=O)O)NC(=O)[C@@H](NC(=O)[C@H](Cc1ccccc1)NC(=O)[C@@H](NC(=O)[C@H](C)NC(=O)[C@H](CC(=O)O)NC(=O)[C@H](CO)NC(=O)[C@@H](N)Cc1c[nH]cn1)C(C)C)[C@@H](C)O)[C@@H](C)O)C(C)C)C(=O)N[C@@H](CC(C)C)C(=O)N[C@@H](CC(N)=O)C(N)=O` is reported as 151 nM (ADCYAP1R1 (Homo sapiens, UniProt P41586, del89-109); receptor internalisation, agonist; COS-7; 37 °C, AUC over 30 min).
With `COc1ccccc1-c1n[nH]c2nc(NC3CCN(C(=O)Cc4ccc(F)cc4F)CC3)ncc12` the relative abundance was 1.1 (bead binding, competition bead pull-down, refers to: LINJ.05.0380; Leishmania donovani axenic amastigote extract; 10 µM; relative to: vehicle).
With `CN(C)[C@H]1C[C@@]23CC[C@@]4(O2)C(=CC[C@]2(C)[C@@H](c5ccc6ccncc6c5)CC[C@H]24)C=C3[C@@H](O)[C@@H]1O` the inhibition was -27.5% (RPS6KB1 (Homo sapiens, UniProt P23443); ATP probe labelling, inhibitor, KiNativ profiling; 1 µM).
`CCCCCn1cc(C(=O)c2cccc3c2CC(C)(C)C3)c2ccccc21` has an EC50 of 7590 nM (CNR1 (Homo sapiens, UniProt P21554, F177A); G protein activation, agonist, BRET).
The EC50 of `CCN(CC)C(=O)c1ccc(C(c2cccc(O)c2)N2CC(C)N(Cc3ccccc3)CC2C)cc1` (stereo not shown) is reported as 0.25 ± 0.15 nM (OPRD1 (Homo sapiens, UniProt P41143, V281A); agonist).
`COc1ccccc1C(C[N+](=O)[O-])c1c(-c2ccccc2)[nH]c2ccccc12` (stereo not shown) gave an EC50 of 270 nM (CNR1 (Homo sapiens, UniProt P21554, Y397F); G protein activation, agonist, BRET).
`CCCCCn1cc(C(=O)c2ccc3c(c2)CC(C)(C)C3)c2ccccc21` gave an EC50 of 37.2 nM (CNR2 (Homo sapiens, UniProt P34972, V261L); cAMP, agonist, BRET).
The EC50 of `COc1ccc2ncc(F)c(C[C@H](O)[C@H]3OC[C@H](NCc4ccc5c(n4)NC(=O)CO5)CO3)c2c1` is reported as 13800 nM (DNA gyrase subunit A with GyrB; single-stranded DNA cleavage; 10 min, 37 °C, added: gyrase 100 nM).
For `CC(C)(C)C(=O)OCOP(=O)(OCOC(=O)C(C)(C)C)C1CCCN(O)C1=O` (stereo not shown), the Log10GI50 was -6.33 log M (LOX IMVI).
`O=[N+]([O-])CC(c1ccco1)c1c(-c2ccccc2)[nH]c2ccccc12` (stereo not shown) gave an EC50 of 390 nM (CNR1 (Homo sapiens, UniProt P21554); G protein activation, agonist, BRET).
`O=C1NC2(CC2)COc2ncc(F)cc2[C@H]2COCCN2c2ccn3ncc1c3n2`: “organ-to-brain weight ratio” 141 ± 7.11% (Sprague-Dawley rat, male, kidneys; oral, 5 mg/kg/day, 4 weeks, end of treatment).
`COc1ccc2nccc(CC[C@H]3OC[C@H](NC(=O)c4ccc(Cl)cc4)CO3)c2c1` has an EC50 of 17100 nM (DNA gyrase subunit A with GyrB; single-stranded DNA cleavage; 10 min, 37 °C, added: gyrase 100 nM).
